{"data": "Results collected from several papers", "CRK2": "Cyclin-dependent kinase 2 homolog (CRK2, Plasmodium falciparum, UniProt P61075)", "BRAF": "Serine/threonine-protein kinase B-raf (BRAF, Homo sapiens, UniProt P15056)", "rhlR": "HTH-type quorum-sensing regulator RhlR (rhlR, Pseudomonas aeruginosa, UniProt P54292)", "Astl": "Astacin-like metalloendopeptidase (Astl, Mus musculus, UniProt Q6HA09)", "note": "Lines come from different studies, so protocols differ. ± marks the error that the study gave.", "chain of UniProt P54292 (whole entry, looked up)": "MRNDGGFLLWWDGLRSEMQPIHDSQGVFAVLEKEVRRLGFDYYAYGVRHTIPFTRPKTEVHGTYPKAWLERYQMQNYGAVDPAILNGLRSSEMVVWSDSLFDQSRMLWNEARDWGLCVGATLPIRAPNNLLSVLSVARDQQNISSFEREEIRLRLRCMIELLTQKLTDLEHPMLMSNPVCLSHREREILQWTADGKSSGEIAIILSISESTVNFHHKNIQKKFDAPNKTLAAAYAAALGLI", "chain of UniProt P15056 (whole entry, looked up)": "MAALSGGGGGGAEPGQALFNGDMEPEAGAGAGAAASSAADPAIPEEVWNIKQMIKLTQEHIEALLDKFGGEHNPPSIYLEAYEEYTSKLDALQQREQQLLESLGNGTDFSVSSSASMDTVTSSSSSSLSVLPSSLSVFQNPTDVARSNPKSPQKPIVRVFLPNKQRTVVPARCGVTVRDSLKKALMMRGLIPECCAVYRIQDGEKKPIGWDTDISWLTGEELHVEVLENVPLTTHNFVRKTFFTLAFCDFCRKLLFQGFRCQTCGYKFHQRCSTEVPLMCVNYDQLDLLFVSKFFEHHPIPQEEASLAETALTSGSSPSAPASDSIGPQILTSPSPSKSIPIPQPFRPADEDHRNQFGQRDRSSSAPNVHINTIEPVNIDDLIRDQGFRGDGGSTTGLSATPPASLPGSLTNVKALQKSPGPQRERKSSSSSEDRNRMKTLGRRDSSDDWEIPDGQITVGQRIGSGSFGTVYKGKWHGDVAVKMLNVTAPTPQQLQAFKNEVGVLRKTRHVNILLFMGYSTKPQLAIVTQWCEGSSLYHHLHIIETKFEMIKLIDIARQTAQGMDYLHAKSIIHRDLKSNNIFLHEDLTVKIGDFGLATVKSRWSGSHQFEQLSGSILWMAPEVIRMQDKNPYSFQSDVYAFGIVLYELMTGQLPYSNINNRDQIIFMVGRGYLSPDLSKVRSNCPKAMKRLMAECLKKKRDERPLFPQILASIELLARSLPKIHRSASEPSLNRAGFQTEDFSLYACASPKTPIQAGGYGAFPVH", "chain of UniProt Q6HA09 (whole entry, looked up)": "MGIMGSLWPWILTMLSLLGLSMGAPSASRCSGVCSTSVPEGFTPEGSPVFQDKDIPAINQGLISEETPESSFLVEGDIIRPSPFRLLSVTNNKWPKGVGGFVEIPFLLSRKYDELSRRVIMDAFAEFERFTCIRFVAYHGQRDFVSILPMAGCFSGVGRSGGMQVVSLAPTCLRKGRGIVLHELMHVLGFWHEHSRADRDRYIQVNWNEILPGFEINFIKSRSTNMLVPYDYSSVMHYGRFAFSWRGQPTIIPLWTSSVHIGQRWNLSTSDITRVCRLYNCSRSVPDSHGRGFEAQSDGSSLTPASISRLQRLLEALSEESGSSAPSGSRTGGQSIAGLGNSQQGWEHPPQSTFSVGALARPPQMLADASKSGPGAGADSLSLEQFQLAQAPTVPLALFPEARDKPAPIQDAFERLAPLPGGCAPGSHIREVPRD", "chain of UniProt P61075 (whole entry, looked up)": "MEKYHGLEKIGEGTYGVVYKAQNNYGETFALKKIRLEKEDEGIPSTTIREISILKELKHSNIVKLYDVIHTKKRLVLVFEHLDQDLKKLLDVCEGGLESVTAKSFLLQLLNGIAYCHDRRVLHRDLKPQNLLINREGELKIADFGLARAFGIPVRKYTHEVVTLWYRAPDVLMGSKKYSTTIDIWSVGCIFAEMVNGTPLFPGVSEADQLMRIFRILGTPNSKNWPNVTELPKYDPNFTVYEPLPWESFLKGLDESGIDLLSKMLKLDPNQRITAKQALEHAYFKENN", "chain of UniProt P33424 (whole entry, looked up)": "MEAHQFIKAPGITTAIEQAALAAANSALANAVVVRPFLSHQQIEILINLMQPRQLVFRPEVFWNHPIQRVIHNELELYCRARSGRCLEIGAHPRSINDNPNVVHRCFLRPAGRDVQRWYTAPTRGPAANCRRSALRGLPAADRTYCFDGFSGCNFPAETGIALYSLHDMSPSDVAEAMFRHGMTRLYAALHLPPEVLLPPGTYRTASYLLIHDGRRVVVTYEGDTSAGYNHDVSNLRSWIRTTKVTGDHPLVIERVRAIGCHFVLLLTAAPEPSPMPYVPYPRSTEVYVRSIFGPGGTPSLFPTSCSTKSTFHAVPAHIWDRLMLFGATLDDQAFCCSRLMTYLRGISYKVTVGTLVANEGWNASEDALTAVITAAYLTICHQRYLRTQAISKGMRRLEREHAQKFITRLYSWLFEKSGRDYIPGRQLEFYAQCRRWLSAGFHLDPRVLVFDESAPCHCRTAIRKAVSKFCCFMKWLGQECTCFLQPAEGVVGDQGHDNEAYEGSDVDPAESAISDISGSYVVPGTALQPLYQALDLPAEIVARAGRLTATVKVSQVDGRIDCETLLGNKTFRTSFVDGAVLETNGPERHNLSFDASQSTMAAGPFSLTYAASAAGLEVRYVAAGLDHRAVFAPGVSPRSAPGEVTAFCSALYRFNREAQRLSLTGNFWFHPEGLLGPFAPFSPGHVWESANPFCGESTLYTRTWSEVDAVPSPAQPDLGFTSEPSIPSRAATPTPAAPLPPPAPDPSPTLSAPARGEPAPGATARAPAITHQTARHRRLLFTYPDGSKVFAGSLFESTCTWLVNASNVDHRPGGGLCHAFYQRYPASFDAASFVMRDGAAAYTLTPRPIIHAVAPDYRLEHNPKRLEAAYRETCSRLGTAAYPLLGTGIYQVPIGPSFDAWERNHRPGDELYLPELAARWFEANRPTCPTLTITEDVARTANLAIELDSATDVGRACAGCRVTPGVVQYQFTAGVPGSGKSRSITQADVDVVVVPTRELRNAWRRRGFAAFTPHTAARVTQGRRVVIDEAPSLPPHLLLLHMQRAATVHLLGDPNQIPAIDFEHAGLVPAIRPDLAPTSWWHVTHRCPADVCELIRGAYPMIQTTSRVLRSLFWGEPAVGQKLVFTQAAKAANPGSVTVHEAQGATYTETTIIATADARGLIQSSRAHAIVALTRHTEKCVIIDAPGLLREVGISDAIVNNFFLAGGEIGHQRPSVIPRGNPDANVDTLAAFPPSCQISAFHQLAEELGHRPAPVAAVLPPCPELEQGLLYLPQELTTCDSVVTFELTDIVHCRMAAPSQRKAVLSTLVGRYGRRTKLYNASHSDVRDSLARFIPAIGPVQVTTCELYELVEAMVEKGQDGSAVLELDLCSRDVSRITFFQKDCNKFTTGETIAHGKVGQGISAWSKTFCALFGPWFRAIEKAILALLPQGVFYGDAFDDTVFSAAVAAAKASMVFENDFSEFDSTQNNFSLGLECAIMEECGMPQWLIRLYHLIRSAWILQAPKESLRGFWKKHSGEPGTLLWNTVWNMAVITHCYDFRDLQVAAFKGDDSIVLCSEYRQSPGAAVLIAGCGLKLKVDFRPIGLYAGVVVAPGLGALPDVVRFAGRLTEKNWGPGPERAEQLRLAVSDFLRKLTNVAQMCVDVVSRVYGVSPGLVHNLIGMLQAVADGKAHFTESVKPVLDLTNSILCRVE", "chain of UniProt Q99683 (whole entry, looked up)": "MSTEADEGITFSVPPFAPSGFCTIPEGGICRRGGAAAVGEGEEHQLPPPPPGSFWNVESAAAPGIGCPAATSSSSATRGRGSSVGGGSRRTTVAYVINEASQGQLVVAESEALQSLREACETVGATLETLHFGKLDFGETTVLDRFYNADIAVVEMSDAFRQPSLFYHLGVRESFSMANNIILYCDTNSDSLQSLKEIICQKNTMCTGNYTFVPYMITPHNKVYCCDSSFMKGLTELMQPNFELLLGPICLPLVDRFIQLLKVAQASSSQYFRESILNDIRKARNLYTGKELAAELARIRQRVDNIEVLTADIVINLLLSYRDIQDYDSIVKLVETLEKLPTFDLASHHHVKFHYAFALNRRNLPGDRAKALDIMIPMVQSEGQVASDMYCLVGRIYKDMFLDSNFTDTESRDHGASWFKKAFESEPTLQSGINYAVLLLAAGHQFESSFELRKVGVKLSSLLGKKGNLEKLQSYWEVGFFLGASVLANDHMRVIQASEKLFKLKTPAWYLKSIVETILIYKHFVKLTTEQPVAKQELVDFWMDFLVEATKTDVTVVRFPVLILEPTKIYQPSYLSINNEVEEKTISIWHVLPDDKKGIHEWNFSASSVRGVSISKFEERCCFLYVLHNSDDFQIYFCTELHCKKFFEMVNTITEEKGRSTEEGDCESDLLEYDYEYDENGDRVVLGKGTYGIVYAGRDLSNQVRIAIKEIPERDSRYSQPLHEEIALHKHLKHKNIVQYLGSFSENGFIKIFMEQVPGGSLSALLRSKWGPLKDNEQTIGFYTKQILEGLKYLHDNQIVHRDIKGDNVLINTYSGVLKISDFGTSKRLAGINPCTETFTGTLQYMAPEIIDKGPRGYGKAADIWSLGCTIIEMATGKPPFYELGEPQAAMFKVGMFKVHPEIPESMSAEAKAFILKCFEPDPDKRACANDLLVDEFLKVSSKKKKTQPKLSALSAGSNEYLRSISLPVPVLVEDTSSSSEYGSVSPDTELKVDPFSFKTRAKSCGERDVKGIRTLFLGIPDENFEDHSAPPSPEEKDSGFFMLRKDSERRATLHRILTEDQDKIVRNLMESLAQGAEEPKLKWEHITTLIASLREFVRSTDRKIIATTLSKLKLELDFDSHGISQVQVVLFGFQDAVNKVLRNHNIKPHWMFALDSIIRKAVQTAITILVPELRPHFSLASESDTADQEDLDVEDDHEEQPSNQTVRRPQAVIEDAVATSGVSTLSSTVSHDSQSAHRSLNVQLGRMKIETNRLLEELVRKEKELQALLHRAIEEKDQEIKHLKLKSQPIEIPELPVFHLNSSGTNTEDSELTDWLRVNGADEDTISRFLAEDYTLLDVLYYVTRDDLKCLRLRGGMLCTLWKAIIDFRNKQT"}
{"Compound": "CCN1CCN(Cc2ccc(NC(=O)c3ccc(C)c(/C=C/c4cnc5[nH]ccc5c4OC)c3)cc2C(F)(F)F)CC1", "target": "CRK2", "assay": "kinase activity", "conditions": "1 µM", "remaining activity": "100%"}
{"Compound": "NC/C(=C\\F)COc1cccc(Cn2c(=S)[nH]c(=O)c3[nH]cnc32)c1", "target": "Peroxidasin homolog (PXDN, Homo sapiens, UniProt Q92626)", "assay": "Amplex UltraRed", "conditions": "10 µM, mean of replicates", "how to read": "baseline: control", "remaining activity": "44.2%"}
{"Compound": "O=C1NC(=O)/C(=C/c2ccc(-c3ccc(F)cc3O)o2)S1", "target": "MAP3K5 (Homo sapiens, UniProt Q99683)", "assay": "enzyme activity", "conditions": "10 µM", "remaining activity": "110%"}
{"Compound": "CC#CC(=O)N1CCC[C@H]1c1nc(-c2ccc(C(=O)Nc3ccccn3)cc2)c2c(N)nccn12", "target": "BRAF", "assay": "kinase activity, inhibitor, HotSpot radiometric", "conditions": "100 nM, added: ATP 10 µM", "remaining activity": "90 ± 3.1%"}
{"Compound": "COc1cc(F)ccc1-c1ncnc(Nc2cccc(C[S@](C)(=N)=O)c2)n1", "target": "ROS1 (Homo sapiens, UniProt P08922)", "assay": "kinase activity", "conditions": "10 µM, added: 10 µM ATP", "remaining activity": "90%"}
{"Compound": "COc1cc(C#CC(=O)c2ccccc2)ccc1O", "target": "rhlR", "assay": "reporter gene, inhibitor, quorum sensing reporter strain", "conditions": "10 µM, 1.5 h", "how to read": "baseline: DMSO", "remaining activity": "52%"}
{"Compound": "O=C(CCN(Cc1cccnc1)Cc1ccc2c(c1)OCO2)NO", "target": "Astl", "assay": "enzyme activity, inhibitor, fluorogenic", "conditions": "0.25 µM", "remaining activity": "82 ± 5%"}
{"Compound": "Nc1ncc2c(n1)-c1c([nH]c3ccc(-c4ccc(F)cc4)cc13)CCC2", "target": "PAK4 (Homo sapiens, UniProt O96013)", "assay": "kinase activity, inhibitor, radiometric", "conditions": "1 µM, added: ATP at Km", "remaining activity": "76%"}
{"Compound": "Cc1cc(Nc2cc(N3CCN(C)CC3)nc(Sc3ccc(NC(=O)C4CC4)cc3)n2)[nH]n1", "target": "SGK2 (Homo sapiens, UniProt Q9HBY8)", "assay": "kinase activity, KinaseProfiler", "conditions": "0.03 µM, species human", "how to read": "baseline: control", "remaining activity": "59%"}
{"Compound": "OC(C#Cc1ccc(F)c(F)c1)c1ccccc1 (stereo not drawn)", "target": "rhlR", "assay": "reporter gene, inhibitor, quorum sensing reporter strain", "conditions": "10 µM, 1.5 h", "how to read": "baseline: DMSO", "remaining activity": "78%"}
{"Compound": "COc1cc(Nc2ncc3c(n2)-c2ccc(Cl)cc2C(c2c(F)cccc2OC)=NC3)ccc1C(=O)O", "target": "FGFR3 K650E", "assay": "kinase activity", "conditions": "1 µM", "remaining activity": "37%"}
{"Compound": "C=CC(=O)N1CCC([C@@H]2CCNc3c(C(N)=O)c(-c4ccc(Oc5ccccc5)cc4)nn32)CC1", "target": "MAP4K1 (Homo sapiens, UniProt Q92918)", "assay": "kinase activity, inhibitor, HotSpot radiometric", "conditions": "100 nM, added: ATP 10 µM", "remaining activity": "86.9 ± 2.1%"}
{"Compound": "CCOc1cc(N2CCN(C)CC2)ccc1Nc1nc(N)n(C(=O)NCc2ccccc2S(=O)(=O)C(C)C)n1", "target": "DCLK1 (Homo sapiens, UniProt O15075)", "assay": "enzyme activity", "conditions": "10 µM", "how to read": "baseline: control", "remaining activity": "1.6%"}
{"Compound": "O=C(NC1CCC1)c1ccc2nc(-c3cccc(NS(=O)(=O)NCCN4CCCCC4)c3)cn2c1", "target": "CRK2", "assay": "enzyme activity", "conditions": "10 µM", "remaining activity": "89%"}
{"Compound": "COc1ccc(C(=O)C#Cc2ccc(F)c(F)c2)cc1", "target": "rhlR", "assay": "reporter gene, inhibitor, quorum sensing reporter strain", "conditions": "10 µM, 1.5 h", "how to read": "baseline: DMSO", "remaining activity": "77%"}
{"Compound": "COc1ccc(F)cc1C(=O)NCc1ccc(-c2nn([C@@H](C)C(F)(F)F)c(N)c2C(N)=O)cc1", "target": "JAK3 (Homo sapiens, UniProt P52333)", "assay": "kinase activity, inhibitor, HotSpot radiometric", "conditions": "1000 nM, added: ATP at Km", "remaining activity": "97 ± 1.7%"}
{"Compound": "CNc1ncc2c(/C=C/C(=O)N3CCC(OC)CC3)nn(Cc3cccc(C(F)(F)F)c3)c2n1", "target": "FGFR1", "assay": "kinase activity", "conditions": "1 µM", "how to read": "baseline: control", "remaining activity": "90%"}
{"Compound": "C=CC(=O)N1CCC[C@@H](n2nc(-c3ccc(Oc4ccccc4)cc3)c3c(N)ncnc32)C1", "target": "Cyclin-dependent kinase 16, with cyclin Y (CDK16, Homo sapiens, UniProt Q00536)", "assay": "kinase activity, inhibitor, HotSpot radiometric", "conditions": "100 nM, added: ATP 10 µM", "remaining activity": "91.7 ± 5.2%"}
{"Compound": "COc1cc(C#CC(=O)C(C)C)ccc1O", "target": "rhlR", "assay": "reporter gene, inhibitor, quorum sensing reporter strain", "conditions": "10 µM, 1.5 h", "how to read": "baseline: DMSO", "remaining activity": "91%"}
{"Compound": "O=C(CCN(Cc1ccc2c(c1)OCO2)Cc1ccc(Cl)cc1F)NO", "target": "Astl", "assay": "enzyme activity, inhibitor, fluorogenic", "conditions": "0.25 µM", "remaining activity": "83 ± 2%"}
{"Compound": "O=C(O)c1ccc(Nc2ncc3c(n2)-c2ccc(Cl)cc2C(c2c(F)cccc2F)=NC3)cc1", "target": "MLCK(h)", "assay": "kinase activity", "conditions": "1 µM", "remaining activity": "95%"}
{"Compound": "CCCCC[C@H](O)CC(=O)CCc1ccc(O)c(OC)c1", "target": "rhlR", "assay": "reporter gene, inhibitor, quorum sensing reporter strain", "conditions": "10 µM, 1.5 h", "how to read": "baseline: DMSO", "remaining activity": "84%"}
{"Compound": "C[C@H]1[C@H](OC(=O)CCC(=O)O)O[C@@H]2O[C@@]3(C)CC[C@H]4[C@H](C)CC[C@@H]1[C@@]24OO3", "target": "Non-structural polyprotein pORF1, helicase domain (Hepatitis E virus genotype 1, UniProt P33424)", "assay": "ATPase activity, inhibitor, colorimetric", "conditions": "19.5 µM, preincubation 30 min, added: ATP 300 µM", "how to read": "baseline: untreated", "remaining activity": "83.8%"}
{"Compound": "COc1cc(C#CC(=O)c2ccccc2C)ccc1O", "target": "rhlR", "assay": "reporter gene, inhibitor, quorum sensing reporter strain", "conditions": "10 µM, 1.5 h", "how to read": "baseline: DMSO", "remaining activity": "64%"}
{"Compound": "COc1cc(-c2cncc3c2CN(C)Cc2cc(N4CCNCC4)ccc2-3)cc(OC)c1OC", "target": "BRAF", "assay": "kinase activity", "conditions": "1 µM, human enzyme, added: ATP 10 µM", "how to read": "baseline: DMSO control", "remaining activity": "96%"}
{"Compound": "COc1ccc(C(=O)C#Cc2ccc(O)c(OC)c2)cc1", "target": "rhlR", "assay": "reporter gene, inhibitor, quorum sensing reporter strain", "conditions": "10 µM, 1.5 h", "how to read": "baseline: DMSO", "remaining activity": "96%"}
{"Compound": "C=CC(=O)N1CCC[C@@H](n2nc(-c3ccc(Oc4ccccc4)cc3)c3c(N)ncnc32)C1", "target": "PDK4 (Homo sapiens, UniProt Q16654)", "conditions": "0.1 µM", "remaining activity": "85.2%"}
{"note": "Excerpt of the above:"}
{"Compound": "COc1cc(-c2cncc3c2CN(C)Cc2cc(N4CCNCC4)ccc2-3)cc(OC)c1OC", "target": "BRAF", "assay": "kinase activity", "conditions": "1 µM, human enzyme, added: ATP 10 µM", "how to read": "baseline: DMSO control", "remaining activity": "96%"}
{"Compound": "Cc1cc(Nc2cc(N3CCN(C)CC3)nc(Sc3ccc(NC(=O)C4CC4)cc3)n2)[nH]n1", "target": "SGK2 (Homo sapiens, UniProt Q9HBY8)", "assay": "kinase activity, KinaseProfiler", "conditions": "0.03 µM, species human", "how to read": "baseline: control", "remaining activity": "59%"}
{"Compound": "CCCCC[C@H](O)CC(=O)CCc1ccc(O)c(OC)c1", "target": "rhlR", "assay": "reporter gene, inhibitor, quorum sensing reporter strain", "conditions": "10 µM, 1.5 h", "how to read": "baseline: DMSO", "remaining activity": "84%"}
